Measurements collected from several papers.
Every numbered part comes from another study and shows a few of its results, in no order. Substitutions count along the parent as printed.

Block 1
Target: Sox, HMG box (Pigoraptor chileana)
Method: Spec-seq
Molecule type: double-stranded DNA, one strand shown
Matrix: in vitro
Tested at: not given
Setting: whole probe, mean of replicates
Relative to: not given
Direction: lower = stronger binding
Endpoint: relative binding energy
Constant ends, left off below: GAGTCGTCTCGTCAGCAC … CCGTAGAGCACTCAGGTC
Construct (chain): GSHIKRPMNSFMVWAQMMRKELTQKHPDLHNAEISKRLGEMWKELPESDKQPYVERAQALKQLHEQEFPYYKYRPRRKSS
CATCTTC: 0.733 ln ratio
ACATGTT: -0.748 ln ratio
CTCGGTT: 0.795 ln ratio
CATACAC: -0.0317 ln ratio
GTACGTT: 0.911 ln ratio
GAGGGTT: 1.38 ln ratio
CGGGGTT: 1.64 ln ratio
ACCGGTT: 0.322 ln ratio

Block 2
Target: Interferon regulatory factor 5, full length, phosphomimetic (IRF5, Homo sapiens, UniProt Q13568-2, residues 1-514, K96S/S451D/S453D/S456D/S462D)
Method: protein-binding microarray
Molecule type: double-stranded DNA, one strand shown
Matrix: in vitro
Tested at: 250 nM
Setting: 60-bp whole probe
With: salmon DNA 0.4 mg/ml
Relative to: random background probes
Direction: higher = stronger binding
Endpoint: log fluorescence
Constant ends, left off below: GCCTAGCAC … GTCTTGATTCGCTTGACGCTGCTG
TCAGAAATCACCCTTGGAACTGTGCTA: 0.153 z-score
TTAGATCTCAATTTCGATTAGTGCTAG: 6.81 z-score
TCATTTTTTTTCCTAATACTGTGCTAG: 1.47 z-score
GACGGACTGGACGCTGGGGACGTGCTA: -0.634 z-score
GACGAACTGGGGACTGGATACGTGCTA: -0.428 z-score
GACGATCTCAGTACCGAGACGTGCTAG: -0.03 z-score
GACGTTATCGGTTTCGGGACGTGCTAG: 8.25 z-score
TTAGGTATCGGGTTTCGGTGAGTGCTA: 7.33 z-score

Block 3
Target: MAFK, bZIP domain (human)
Method: DHFR protein complementation
Matrix: yeast
Setting: single substitutions, most at no-binding floor
Relative to: wild-type JUN-FOS pair
Direction: higher = stronger binding
Endpoint: binding fitness
Starting sequence: JUN, bZIP domain (human); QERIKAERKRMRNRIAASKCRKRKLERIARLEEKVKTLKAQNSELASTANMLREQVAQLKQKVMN; partner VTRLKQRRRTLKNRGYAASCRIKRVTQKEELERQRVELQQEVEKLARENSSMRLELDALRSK
E32V: -1.48 natural log
N42W: -1.44 natural log
V56K: -1.51 natural log
I28Y: -1.43 natural log
K34F: -1.49 natural log
Q55D: -1.49 natural log
L52K: -1.54 natural log
K34V: -1.5 natural log

Mixed results
CCN(CC)CCOc1ccc2c(c1)C(=O)c1cc(OCCN(CC)CC)ccc1-2
infection rate (Plasmodium berghei; inhibitor; Huh-7, GFP-expressing, liver stage; 10 µM, 24 h; relative to: untreated control): 35.4%

Repeated from above (block 3):
N42W: -1.44 natural log
V56K: -1.51 natural log
